Measurements collected from several papers.
Compare with care: the assays were run in different laboratories.
Organism: Escherichia coli

SMILES | assay | test system | setting | MIC
CC[C@H]1OC(=O)[C@H](C)[C@@H](OC(=O)c2ccc(N)cc2)[C@H](C)[C@@H](O[C@@H]2O[C@H](C)C[C@H](N(C)C)[C@H]2O)[C@](C)(OC)C[C@@H](C)C(=O)[C@H](C)[C@@H](O)[C@]1(C)O | microbial growth | ATCC25922 |  | > 32 µg/mL
CCCCCC[N+](C)(C)CCCCCCOc1cc(OCCCCCC[N+](C)(C)CCCCCC)cc(OCCCCCC[N+](C)(C)CCCCCC)c1.[Br-].[Br-].[Br-] |  | MC4100 |  | 1 µM
CCOc1c(NC(=O)c2ccc(NC(=O)[C@H](Cc3c[nH]nn3)NC(=O)c3ccc(NC(=O)/C(C)=C/c4ccc(O)cc4)cc3)cc2)ccc(C(=O)Nc2ccc(C(=O)O)c(O)c2OC)c1O | broth microdilution | BW25113 |  | 0.016 µg/mL
C[C@H](CS)C(=O)Nc1cccc(-c2nn[nH]n2)c1 | broth microdilution, item: meropenem | DH5α pET28-lacUV5 control | 25 µM, together with: meropenem | < 0.125 µg/mL
CCC(CC)c1cc(CCN2CCCN(S(C)(=O)=O)CC2)nc(-c2ccccn2)n1 | microbial growth, broth dilution | ATCC25922 |  | > 64 µg/mL
CC[C@H]1OC(=O)[C@H](C)[C@@H](OC(=O)Cc2ccccc2[N+](=O)[O-])[C@H](C)[C@@H](O[C@@H]2O[C@H](C)C[C@H](N(C)C)[C@H]2O)[C@](C)(OC)C[C@@H](C)C(=O)[C@H](C)[C@@H](O)[C@]1(C)O | microbial growth | ATCC25922 |  | > 32 µg/mL
COc1ccc2cc3[n+](cc2c1OC)CCc1cc2c(cc1-3)OCO2.[Cl][Fe-]([Cl])([Cl])[Cl] |  |  | 24 h, 37 °C | 800 µM
N=C(N)NCCC[C@@H]1NC(=O)[C@@H](CCCNC(=N)N)NC(=O)[C@H](CCCNC(=N)N)NC(=O)[C@@H](C(c2ccccc2)c2ccccc2)NC(=O)[C@@H](C(c2ccccc2)c2ccccc2)NC(=O)[C@@H](C(c2ccccc2)c2ccccc2)NC(=O)[C@@H](CCCNC(=N)N)NC1=O |  | ATCC 25922 |  | 32 µg/mL
CC(C)C[C@@H]1NC(=O)[C@@H](CC(C)C)NC(=O)[C@H](CCN)NC(=O)[C@@H](NC(=O)[C@H](CCN)NC(=O)[C@@H](NC(=O)CN=[N+]=[N-])[C@@H](C)O)CCNC(=O)[C@H]([C@@H](C)O)NC(=O)[C@H](CCN)NC(=O)[C@H](CCN)NC1=O | broth microdilution | ATCC 25922 | 18 to 20 h | 64 µg/mL
COc1nc(C(=O)O)ccc1NC(=O)c1ccc(NC(=O)c2ccc(NC(=O)[C@H](Cc3c[nH]nn3)NC(=O)c3ccc(NC(=O)/C(C)=C/c4ccc(O)cc4)cc3)cc2)c(OC)c1O | broth microdilution | ciprofloxacin-sensitive |  | 2 µg/mL
CCCCCCCC(=O)N[C@@H](CCN)C(=O)N[C@H](C(=O)N[C@@H](CCN)C(=O)N[C@H]1CCNC(=O)[C@H]([C@@H](C)O)NC(=O)[C@H](CCN)NC(=O)[C@H](CCN)NC(=O)[C@H](CC(C)C)NC(=O)[C@@H](Cc2ccccc2)NC(=O)[C@H](CCN)NC1=O)[C@@H](C)O | broth microdilution | ATCC 25922 |  | 0.125 to 0.25 µg/mL
COc1c(C)c(O)c(C(=O)C=Cc2ccccc2)c(OC)c1C | microbial growth, broth dilution | ATCC25922 |  | 5000 µg/mL
CN[C@H](CC(C)C)C(=O)N[C@H]1C(=O)N[C@@H](CC(N)=O)C(=O)N[C@H]2C(=O)N[C@H]3C(=O)N[C@H](C(=O)N[C@H](C(=O)O)c4cc(O)cc(O)c4-c4cc3ccc4O)[C@H](O)c3ccc(c(Cl)c3)Oc3cc2cc(c3O[C@@H]2O[C@H](CO)[C@@H](O)[C@H](O)[C@H]2O[C@H]2C[C@](C)(N)[C@H](O)[C@H](C)O2)Oc2ccc(cc2Cl)[C@H]1O | microbial growth, broth dilution | 25922 |  | 64 µM
CC[C@H]1OC(=O)[C@H](C)[C@@H](OC(=O)Cc2cccc(Cl)c2)[C@H](C)[C@@H](O[C@@H]2O[C@H](C)C[C@H](N(C)C)[C@H]2O)[C@](C)(OC)C[C@@H](C)C(=O)[C@H](C)[C@@H](O)[C@]1(C)O |  | tolC |  | 2 µg/mL
C/C(=C\c1ccc(O)cc1)C(=O)Nc1ccc(C(=O)N[C@@H](Cc2c[nH]nn2)C(=O)Nc2ccc(C(=O)Nc3ccc(C(=O)Nc4ccc(C(=O)O)c(O)c4)c(O)c3)cc2)cc1 | broth microdilution | BW25113 |  | 0.063 µg/mL
CC(C)C[C@@H]1NC(=O)[C@@H](CC(C)C)NC(=O)[C@H](CCN)NC(=O)[C@@H](NC(=O)[C@H](CCN)NC(=O)[C@@H](N)[C@@H](C)O)CCNC(=O)[C@H]([C@@H](C)O)NC(=O)[C@H](CCN)NC(=O)[C@H](CCN)NC1=O | broth microdilution | ATCC 25922 | 18 to 20 h | > 128 µg/mL
COc1ccc2ccc(O)c(/C=N/[C@H]3CCCC[C@H]3/N=C/c3cccc(C)c3O)c2c1 | microbial growth, broth dilution |  |  | > 40 µM
COc1cc(Cc2cnc(N)nc2N)cc(OC)c1OC.O=c1[nH]cc(F)c(=O)[nH]1 | broth microdilution |  | 24 h | > 32 µg/mL

SMILES | assay | test system | setting | MIC
CCCCCCCCCCCC[N+](C)(C)CCCCCCOc1cc(OCCCCCC[N+](C)(C)CCCCCCCCCCCC)cc(OCCCCCC[N+](C)(C)CCCCCCCCCCCC)c1.[Br-].[Br-].[Br-] |  | MC4100 |  | 16 µM
C#CCNC(=O)C(C)(C)O/N=C(\C(=O)N[C@@H]1C(=O)N(S(=O)(=O)O)[C@H]1C)c1csc(N)n1 | agar dilution | 16-1 ESBL |  | 1 µg/mL
c1ccc(CN2CCOCCOCCN(CCCCCCCCCCCCCCN3CCOCCOCCN(CCCCCCCCCCCCCCN4CCOCCOCCN(Cc5ccccc5)CCOCCOCC4)CCOCCOCC3)CCOCCOCC2)cc1 |  | tetracycline-resistant (pBR322) |  | 2 µM
COc1c(NC(=O)c2ccc(NC(=O)[C@H](Cc3c[nH]nn3)NC(=O)c3ccc(NC(=O)/C(C)=C/c4ccc(O)cc4)cc3)cc2)ccc(C(=O)Nc2ccc(C(=O)O)c(O)c2)c1O | broth microdilution | ciprofloxacin-sensitive |  | 0.25 µg/mL
COc1ccc(/N=N/C(=S)N2CCCCC2)cc1 | microbial growth, broth dilution | ATCC 8739, ATCC8739 | 24 h | > 50 µM
CC(C(=O)O)c1n[nH]c2nc(N)[nH]c(=O)c2c1=O (centres unmarked) | microbial growth, broth dilution | BW25113 | 18 h | > 100 µg/mL
COc1c(NC(=O)c2ccc(NC(=O)[C@H](Cc3c[nH]nn3)NC(=O)c3ccc(NC(=O)/C(C)=C/c4ccc(O)cc4)cc3)cc2)ccc(C(=O)Nc2ccc(C(=O)O)cc2)c1O | broth microdilution | ciprofloxacin-sensitive |  | 0.125 µg/mL
CC1(C)[C@H](NC(=O)/C(=N\OCC(=O)N2CCC(C(=O)O)CC2)c2csc(N)n2)C(=O)N1OS(=O)(=O)O | agar dilution | 16-1, ESBL-producing |  | 1 µg/mL
COc1ccc2ccc(O)c(/C=N/[C@H]3CCCC[C@H]3/N=C/c3cc(F)ccc3O)c2c1 | microbial growth, broth dilution |  |  | > 40 µM
Cn1nc(CCCC(=O)O)c(=O)c2c(=O)[nH]c(N)nc21 | microbial growth, broth dilution | BW25113 | 18 h | 25 µg/mL
C/C(=C\c1ccc(O)cc1)C(=O)Nc1ccc(C(=O)N[C@@H](Cc2c[nH]nn2)C(=O)Nc2ccc(C(=O)Nc3ccc(C(=O)Nc4ccc(C(=O)O)cc4)cc3)cc2)cc1 | broth microdilution | ciprofloxacin-resistant |  | 0.25 µg/mL
Oc1c(Br)cc(Br)c2nc3c(C(F)(F)F)cc(C(F)(F)F)cc3nc12 |  |  |  | > 100 µM
CC[C@H](C)[C@H](NC(=O)[C@@H](CCCNC(=N)N)NC(=O)[C@H](CCCNC(=N)N)NC(=O)[C@@H]1CCCN1C(=O)[C@@H]1CCCN1C(=O)[C@H](CCCNC(=N)N)NC(=O)[C@@H]1CCCN1C(=O)[C@H](CCCNC(=N)N)NC(=O)[C@@H]1CCCN1C(=O)[C@H](CC(C)C)NC(=O)[C@H](Cc1ccc(O)cc1)NC(=O)[C@@H]1CCCN1C(=O)[C@@H]1CCCN1C(=O)[C@H](CCCCN)NC(=O)[C@H](CC(=O)O)NC(=O)[C@@H](N)C(C)C)C(=O)N[C@@H](Cc1ccc(O)cc1)C(=O)N[C@@H](CC(N)=O)C(=O)N[C@H](CCCNC(=N)N)C(N)=O | broth microdilution | ATCC 25922 | 18 h, 37 °C, 25% MHB2 | 8 µg/mL
CC[C@H]1OC(=O)[C@H](C)[C@@H](OC(=O)Cc2ccc(Cl)cc2)[C@H](C)[C@@H](O[C@@H]2O[C@H](C)C[C@H](N(C)C)[C@H]2O)[C@](C)(OC)C[C@@H](C)C(=O)[C@H](C)[C@@H](O)[C@]1(C)O |  | tolC |  | 2 µg/mL
COc1cc(C(=O)O)ccc1NC(=O)c1ccc(NC(=O)c2ccc(NC(=O)[C@H](Cc3c[nH]nn3)NC(=O)c3ccc(NC(=O)/C(C)=C/c4ccc(O)cc4)cc3)cc2)cc1O | broth microdilution | ciprofloxacin-resistant |  | 1 µg/mL
COC(C(N)=O)C(NC(=O)c1ccc(NC(=O)c2ccc(C#N)cc2)cc1)C(=O)Nc1ccc(C(=O)Nc2ccc(C(=O)Nc3ccc(C(=O)O)cc3)c(O)c2OC(C)C)cc1 (centres unmarked) |  | BW25113 wild type |  | 0.2 µg/mL
CC[C@H](C)[C@H](NC(=O)[C@@H](CCCNC(=N)N)NC(=O)[C@H](CCCNC(=N)N)NC(=O)[C@@H]1CCCN1C(=O)[C@@H]1CCCN1C(=O)[C@H](CCCNC(=N)N)NC(=O)[C@@H]1CCCN1C(=O)[C@H](CCCNC(=N)N)NC(=O)[C@@H]1CCCN1C(=O)[C@H](CC(C)C)NC(=O)[C@H](Cc1ccc(O)cc1)NC(=O)[C@@H]1CCCN1C(=O)[C@H](CCCCN)NC(=O)[C@H](CCCCN)NC(=O)[C@H](CC(=O)O)NC(=O)[C@@H](N)C(C)C)C(=O)N[C@@H](Cc1ccc(O)cc1)C(=O)N[C@@H](CC(N)=O)C(=O)N[C@H](CCCNC(=N)N)C(N)=O | broth microdilution | MC4100 | 18 h, 37 °C, 25% MHB2 | 4 µg/mL

For quick reference, copied from above:
SMILES | assay | test system | setting | MIC
CC(C)C[C@@H]1NC(=O)[C@@H](CC(C)C)NC(=O)[C@H](CCN)NC(=O)[C@@H](NC(=O)[C@H](CCN)NC(=O)[C@@H](NC(=O)CN=[N+]=[N-])[C@@H](C)O)CCNC(=O)[C@H]([C@@H](C)O)NC(=O)[C@H](CCN)NC(=O)[C@H](CCN)NC1=O | broth microdilution | ATCC 25922 | 18 to 20 h | 64 µg/mL
COc1nc(C(=O)O)ccc1NC(=O)c1ccc(NC(=O)c2ccc(NC(=O)[C@H](Cc3c[nH]nn3)NC(=O)c3ccc(NC(=O)/C(C)=C/c4ccc(O)cc4)cc3)cc2)c(OC)c1O | broth microdilution | ciprofloxacin-sensitive |  | 2 µg/mL
CCCCCCCC(=O)N[C@@H](CCN)C(=O)N[C@H](C(=O)N[C@@H](CCN)C(=O)N[C@H]1CCNC(=O)[C@H]([C@@H](C)O)NC(=O)[C@H](CCN)NC(=O)[C@H](CCN)NC(=O)[C@H](CC(C)C)NC(=O)[C@@H](Cc2ccccc2)NC(=O)[C@H](CCN)NC1=O)[C@@H](C)O | broth microdilution | ATCC 25922 |  | 0.125 to 0.25 µg/mL
COc1c(C)c(O)c(C(=O)C=Cc2ccccc2)c(OC)c1C | microbial growth, broth dilution | ATCC25922 |  | 5000 µg/mL
CN[C@H](CC(C)C)C(=O)N[C@H]1C(=O)N[C@@H](CC(N)=O)C(=O)N[C@H]2C(=O)N[C@H]3C(=O)N[C@H](C(=O)N[C@H](C(=O)O)c4cc(O)cc(O)c4-c4cc3ccc4O)[C@H](O)c3ccc(c(Cl)c3)Oc3cc2cc(c3O[C@@H]2O[C@H](CO)[C@@H](O)[C@H](O)[C@H]2O[C@H]2C[C@](C)(N)[C@H](O)[C@H](C)O2)Oc2ccc(cc2Cl)[C@H]1O | microbial growth, broth dilution | 25922 |  | 64 µM
CC[C@H]1OC(=O)[C@H](C)[C@@H](OC(=O)Cc2cccc(Cl)c2)[C@H](C)[C@@H](O[C@@H]2O[C@H](C)C[C@H](N(C)C)[C@H]2O)[C@](C)(OC)C[C@@H](C)C(=O)[C@H](C)[C@@H](O)[C@]1(C)O |  | tolC |  | 2 µg/mL
